Published values collected from several papers.
Lines come from different studies, so protocols differ. ± gives the spread as reported.
GLP1R: Glucagon-like peptide 1 receptor (GLP1R, Homo sapiens, UniProt P43220)
KCNT1: Potassium channel subfamily T member 1 (KCNT1, Homo sapiens, UniProt Q5JUK3)
Lysophospholipase-like protein 1: Lysophospholipase-like protein 1 (Mus musculus, UniProt Q3UFF7)
GRM4: Metabotropic glutamate receptor 4 (GRM4, Homo sapiens, UniProt Q14833)
LDHA: L-lactate dehydrogenase A chain (LDHA, Homo sapiens, UniProt P00338)
ALDH1A1: Aldehyde dehydrogenase 1A1 (ALDH1A1, Homo sapiens, UniProt P00352)

Protein sequences, listed by entry. Tags and fused reporters are not part of them. Residues count along the entry.
UniProt P43220, whole entry, looked up: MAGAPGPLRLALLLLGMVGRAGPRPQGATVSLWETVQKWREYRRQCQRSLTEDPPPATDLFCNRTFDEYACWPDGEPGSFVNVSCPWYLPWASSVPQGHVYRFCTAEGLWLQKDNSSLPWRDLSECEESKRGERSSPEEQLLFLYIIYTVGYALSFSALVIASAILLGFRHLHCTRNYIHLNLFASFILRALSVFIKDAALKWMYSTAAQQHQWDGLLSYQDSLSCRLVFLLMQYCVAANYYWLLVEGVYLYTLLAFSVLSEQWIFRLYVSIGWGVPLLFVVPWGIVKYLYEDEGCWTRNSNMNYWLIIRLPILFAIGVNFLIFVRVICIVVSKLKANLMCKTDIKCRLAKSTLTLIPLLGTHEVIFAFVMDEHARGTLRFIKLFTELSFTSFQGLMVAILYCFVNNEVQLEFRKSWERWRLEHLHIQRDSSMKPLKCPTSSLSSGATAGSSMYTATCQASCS
UniProt P43220, 24-463 limits assumed: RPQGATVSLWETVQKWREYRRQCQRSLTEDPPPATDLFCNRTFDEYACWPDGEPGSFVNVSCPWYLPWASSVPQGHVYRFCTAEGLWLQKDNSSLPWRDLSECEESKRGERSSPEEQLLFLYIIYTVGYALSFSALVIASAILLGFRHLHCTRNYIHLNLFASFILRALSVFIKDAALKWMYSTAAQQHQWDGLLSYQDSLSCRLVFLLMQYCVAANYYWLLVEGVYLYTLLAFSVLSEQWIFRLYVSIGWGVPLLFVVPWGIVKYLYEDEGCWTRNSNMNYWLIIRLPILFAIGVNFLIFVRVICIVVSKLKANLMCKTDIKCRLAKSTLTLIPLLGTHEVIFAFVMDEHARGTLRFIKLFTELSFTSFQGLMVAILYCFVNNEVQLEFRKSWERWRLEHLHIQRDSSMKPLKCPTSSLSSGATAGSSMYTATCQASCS
UniProt Q3UFF7, whole entry: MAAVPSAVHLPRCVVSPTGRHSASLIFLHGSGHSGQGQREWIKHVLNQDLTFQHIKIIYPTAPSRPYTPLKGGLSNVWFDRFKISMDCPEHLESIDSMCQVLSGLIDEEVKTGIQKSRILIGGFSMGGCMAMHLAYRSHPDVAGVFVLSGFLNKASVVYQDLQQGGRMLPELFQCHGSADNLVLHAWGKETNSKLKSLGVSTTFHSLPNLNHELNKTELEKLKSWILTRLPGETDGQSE
UniProt Q14833, 33-912 limits assumed: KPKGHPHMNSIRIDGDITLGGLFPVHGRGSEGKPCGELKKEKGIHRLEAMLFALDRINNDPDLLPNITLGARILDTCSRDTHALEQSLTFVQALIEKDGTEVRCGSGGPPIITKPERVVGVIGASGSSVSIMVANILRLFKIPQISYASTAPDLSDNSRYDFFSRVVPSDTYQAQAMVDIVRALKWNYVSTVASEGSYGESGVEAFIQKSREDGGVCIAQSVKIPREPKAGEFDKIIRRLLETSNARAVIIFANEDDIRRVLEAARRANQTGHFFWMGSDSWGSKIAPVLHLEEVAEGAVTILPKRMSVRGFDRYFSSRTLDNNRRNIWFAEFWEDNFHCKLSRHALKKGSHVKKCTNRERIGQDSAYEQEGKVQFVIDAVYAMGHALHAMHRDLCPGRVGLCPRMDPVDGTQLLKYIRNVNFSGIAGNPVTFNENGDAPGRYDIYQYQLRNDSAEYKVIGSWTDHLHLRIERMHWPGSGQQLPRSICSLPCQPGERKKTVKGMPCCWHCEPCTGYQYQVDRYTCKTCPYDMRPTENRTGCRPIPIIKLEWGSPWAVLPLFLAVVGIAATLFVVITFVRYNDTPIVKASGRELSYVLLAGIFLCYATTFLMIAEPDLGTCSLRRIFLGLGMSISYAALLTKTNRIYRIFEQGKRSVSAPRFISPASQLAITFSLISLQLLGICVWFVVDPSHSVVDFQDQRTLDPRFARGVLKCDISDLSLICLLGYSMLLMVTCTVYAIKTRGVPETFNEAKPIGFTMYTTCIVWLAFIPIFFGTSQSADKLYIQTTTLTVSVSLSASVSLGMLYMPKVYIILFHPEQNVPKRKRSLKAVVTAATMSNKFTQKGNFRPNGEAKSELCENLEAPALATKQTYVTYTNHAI
UniProt P33033, whole entry: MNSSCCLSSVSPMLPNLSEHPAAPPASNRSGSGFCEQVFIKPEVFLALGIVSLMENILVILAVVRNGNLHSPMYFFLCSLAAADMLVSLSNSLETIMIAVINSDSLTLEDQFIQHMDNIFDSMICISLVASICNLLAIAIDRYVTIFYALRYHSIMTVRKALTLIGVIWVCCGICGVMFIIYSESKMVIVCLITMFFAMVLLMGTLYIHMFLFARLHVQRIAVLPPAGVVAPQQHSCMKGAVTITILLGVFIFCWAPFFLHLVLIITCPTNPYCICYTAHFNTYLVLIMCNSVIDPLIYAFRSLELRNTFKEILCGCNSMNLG
UniProt Q14831, whole entry, looked up: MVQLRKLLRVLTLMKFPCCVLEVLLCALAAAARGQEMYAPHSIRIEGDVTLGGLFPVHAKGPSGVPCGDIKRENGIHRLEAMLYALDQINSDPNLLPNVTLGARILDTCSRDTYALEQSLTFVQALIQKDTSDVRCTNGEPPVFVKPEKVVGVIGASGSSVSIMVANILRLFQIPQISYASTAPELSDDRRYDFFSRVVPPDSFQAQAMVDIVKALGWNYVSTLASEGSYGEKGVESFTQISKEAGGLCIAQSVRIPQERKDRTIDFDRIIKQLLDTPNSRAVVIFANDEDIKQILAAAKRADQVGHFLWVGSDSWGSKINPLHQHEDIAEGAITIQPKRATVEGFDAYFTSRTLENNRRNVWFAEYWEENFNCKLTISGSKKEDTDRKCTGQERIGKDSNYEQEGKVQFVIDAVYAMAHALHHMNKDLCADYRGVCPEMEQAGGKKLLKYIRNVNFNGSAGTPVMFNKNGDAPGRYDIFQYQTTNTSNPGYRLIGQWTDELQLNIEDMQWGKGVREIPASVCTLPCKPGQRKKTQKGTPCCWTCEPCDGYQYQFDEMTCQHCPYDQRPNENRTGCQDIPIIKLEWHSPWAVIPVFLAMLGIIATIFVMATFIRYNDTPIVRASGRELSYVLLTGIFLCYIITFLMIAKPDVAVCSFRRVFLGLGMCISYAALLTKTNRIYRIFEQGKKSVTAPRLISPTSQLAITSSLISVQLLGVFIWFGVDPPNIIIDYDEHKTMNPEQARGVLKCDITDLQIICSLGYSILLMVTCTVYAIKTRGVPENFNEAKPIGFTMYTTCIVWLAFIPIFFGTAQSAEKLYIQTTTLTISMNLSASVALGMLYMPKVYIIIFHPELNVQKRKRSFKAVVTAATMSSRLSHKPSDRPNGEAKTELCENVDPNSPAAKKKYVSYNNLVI
UniProt Q5VWZ2, whole entry: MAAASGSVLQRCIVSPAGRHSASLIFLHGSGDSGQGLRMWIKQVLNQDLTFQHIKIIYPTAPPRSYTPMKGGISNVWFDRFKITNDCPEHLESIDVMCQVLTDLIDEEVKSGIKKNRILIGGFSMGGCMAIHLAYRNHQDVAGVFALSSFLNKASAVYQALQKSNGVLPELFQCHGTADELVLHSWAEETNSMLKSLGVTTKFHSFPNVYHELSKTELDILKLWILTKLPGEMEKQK
UniProt Q923Y9, whole entry: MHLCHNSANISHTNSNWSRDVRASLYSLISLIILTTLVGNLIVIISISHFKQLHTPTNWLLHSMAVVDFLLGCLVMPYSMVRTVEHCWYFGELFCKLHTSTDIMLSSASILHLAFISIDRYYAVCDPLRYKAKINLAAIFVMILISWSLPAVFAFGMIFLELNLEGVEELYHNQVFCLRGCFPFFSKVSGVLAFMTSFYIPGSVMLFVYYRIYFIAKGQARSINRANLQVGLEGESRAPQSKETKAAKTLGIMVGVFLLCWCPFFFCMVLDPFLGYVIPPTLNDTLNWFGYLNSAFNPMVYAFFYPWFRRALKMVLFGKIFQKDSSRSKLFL
UniProt Q923Y9, whole entry M268T: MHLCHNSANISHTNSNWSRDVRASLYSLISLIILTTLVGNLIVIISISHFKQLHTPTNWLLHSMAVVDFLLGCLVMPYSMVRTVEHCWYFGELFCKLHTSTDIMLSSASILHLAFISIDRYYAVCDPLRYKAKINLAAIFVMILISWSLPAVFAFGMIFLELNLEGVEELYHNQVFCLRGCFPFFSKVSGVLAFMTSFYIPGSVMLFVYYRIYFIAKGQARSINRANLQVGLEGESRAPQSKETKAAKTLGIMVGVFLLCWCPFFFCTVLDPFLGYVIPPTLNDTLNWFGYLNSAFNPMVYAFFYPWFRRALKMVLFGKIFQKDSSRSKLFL
UniProt Q923Y9, whole entry N287Y: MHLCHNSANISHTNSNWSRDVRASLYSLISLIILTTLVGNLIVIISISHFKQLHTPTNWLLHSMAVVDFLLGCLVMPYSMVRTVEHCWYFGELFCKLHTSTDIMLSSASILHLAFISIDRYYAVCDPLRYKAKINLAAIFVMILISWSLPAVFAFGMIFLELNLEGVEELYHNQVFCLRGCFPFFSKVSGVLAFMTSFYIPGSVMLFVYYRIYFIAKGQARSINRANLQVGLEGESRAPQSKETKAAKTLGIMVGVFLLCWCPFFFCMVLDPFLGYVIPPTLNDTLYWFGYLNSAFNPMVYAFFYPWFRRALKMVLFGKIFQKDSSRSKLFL
UniProt P13569, whole entry N1303K: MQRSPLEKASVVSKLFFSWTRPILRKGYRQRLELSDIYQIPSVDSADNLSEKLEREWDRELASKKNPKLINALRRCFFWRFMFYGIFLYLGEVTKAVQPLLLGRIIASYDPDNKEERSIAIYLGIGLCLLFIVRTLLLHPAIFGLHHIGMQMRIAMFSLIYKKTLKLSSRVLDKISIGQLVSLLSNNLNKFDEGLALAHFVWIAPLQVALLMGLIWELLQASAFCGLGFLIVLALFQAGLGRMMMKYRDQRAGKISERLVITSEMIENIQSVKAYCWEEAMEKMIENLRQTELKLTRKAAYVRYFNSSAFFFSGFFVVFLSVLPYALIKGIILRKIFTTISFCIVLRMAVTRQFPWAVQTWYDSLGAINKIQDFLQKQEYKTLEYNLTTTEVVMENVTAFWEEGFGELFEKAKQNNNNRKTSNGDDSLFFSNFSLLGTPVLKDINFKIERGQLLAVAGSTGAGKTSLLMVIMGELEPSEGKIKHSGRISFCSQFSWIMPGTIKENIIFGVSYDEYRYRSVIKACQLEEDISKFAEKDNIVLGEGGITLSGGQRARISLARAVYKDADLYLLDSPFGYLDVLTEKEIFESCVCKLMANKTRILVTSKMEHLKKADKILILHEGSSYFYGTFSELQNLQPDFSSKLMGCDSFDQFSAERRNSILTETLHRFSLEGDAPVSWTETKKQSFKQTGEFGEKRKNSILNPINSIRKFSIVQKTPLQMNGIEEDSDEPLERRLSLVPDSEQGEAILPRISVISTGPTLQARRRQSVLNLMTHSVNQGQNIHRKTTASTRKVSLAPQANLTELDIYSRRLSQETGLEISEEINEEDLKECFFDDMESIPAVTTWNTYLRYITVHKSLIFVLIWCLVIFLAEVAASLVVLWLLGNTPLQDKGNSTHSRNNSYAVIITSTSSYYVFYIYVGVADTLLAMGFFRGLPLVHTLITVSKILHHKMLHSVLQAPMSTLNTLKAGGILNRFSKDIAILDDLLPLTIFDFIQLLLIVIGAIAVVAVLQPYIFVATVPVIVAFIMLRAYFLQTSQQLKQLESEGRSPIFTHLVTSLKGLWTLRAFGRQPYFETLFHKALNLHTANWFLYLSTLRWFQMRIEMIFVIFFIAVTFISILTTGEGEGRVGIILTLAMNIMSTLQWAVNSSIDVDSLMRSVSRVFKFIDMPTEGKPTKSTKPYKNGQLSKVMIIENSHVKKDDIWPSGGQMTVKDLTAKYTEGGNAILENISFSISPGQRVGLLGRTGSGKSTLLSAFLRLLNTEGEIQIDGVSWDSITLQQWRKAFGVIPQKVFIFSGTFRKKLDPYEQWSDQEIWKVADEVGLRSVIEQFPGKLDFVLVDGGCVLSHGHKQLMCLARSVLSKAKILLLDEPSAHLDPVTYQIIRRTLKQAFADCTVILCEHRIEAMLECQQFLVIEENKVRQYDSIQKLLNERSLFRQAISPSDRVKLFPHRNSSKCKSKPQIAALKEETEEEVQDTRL
UniProt Q923Y8, whole entry: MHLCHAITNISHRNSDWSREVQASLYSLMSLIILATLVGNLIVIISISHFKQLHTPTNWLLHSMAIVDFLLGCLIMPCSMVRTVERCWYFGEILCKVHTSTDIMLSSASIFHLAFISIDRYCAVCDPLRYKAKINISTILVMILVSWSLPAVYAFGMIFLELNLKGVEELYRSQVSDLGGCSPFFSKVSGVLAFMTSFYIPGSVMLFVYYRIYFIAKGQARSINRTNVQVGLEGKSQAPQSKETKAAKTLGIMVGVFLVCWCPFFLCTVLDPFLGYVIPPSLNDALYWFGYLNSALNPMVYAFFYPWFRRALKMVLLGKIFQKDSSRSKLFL

Cc1[nH]c2cc(Cl)cc(Cl)c2c1CCn1cc(COCCOCCO)nn1
EC50 (GLP1R; cAMP accumulation, positive allosteric modulator, HTRF; CHO-K1 expressing GLP1R; purified compound, added: GLP-1(9-36) at EC20): 1.39 ± 0.044 µM

Cc1c(=O)n(C)c(Nc2ccc(I)cc2F)c2c(=O)n(C3CC3)c(=O)n(-c3cccc(NC(=O)CCOCCOCCNC(=O)CCC4=[N+]5C(=Cc6ccc(-c7ccc[nH]7)n6[B-]5(F)F)C=C4)c3)c12
EC50 (Dual specificity mitogen-activated protein kinase kinase 1, with ARAF (MAP2K1, Homo sapiens, UniProt Q02750); binding, NanoBRET; HEK-293T; MEK1-NanoLuc with ARAF): 0.167 ± 0.027 µM

NCCCCNC(=O)[C@H](Cc1c[nH]cn1)NC(=O)N1CCc2ccccc2C1
EC50 (Melanocortin receptor 3 (Mus musculus, UniProt P33033); reporter gene, agonist, β-galactosidase reporter; HEK293 stably expressing Melanocortin receptor 3): > 100 µM

COc1cccc2ncn(CC3CCN(S(=O)(=O)c4cccc(C(F)(F)F)c4)CC3)c12
EC50 (KCNT1; thallium flux, activator; HEK293 expressing KCNT1): 6.2 µM

Cc1nc2ccc(S(=O)(=O)n3nc(NCCc4ccc(Cl)cc4)nc3N)cc2s1
EC50 (Lysophospholipase-like protein 1; enzyme activity, activator, gel-based ABPP, FP-rhodamine; purified protein): > 20 µM

COc1ccc(NC(=O)CN2CCCN(S(=O)(=O)c3ccc(C(F)(F)F)cc3)CC2)c(OC)c1
EC50 (GRM4; calcium mobilization, positive allosteric modulator; CHO cells with Gqi5; added: glutamate EC20): 2.5 ± 0.5 µM

CCCC(C(=O)Nc1ccc(Br)cc1)n1nc(C)cc(Cc2cccc(OC)c2)c1=O (racemic)
EC50 (FPR2 (Homo sapiens, UniProt P25090); calcium mobilization, agonist; HL-60 transfected with FPR2): 3.6 µM

Oc1ccc(N=Cc2c(O)ccc3ccccc23)cc1
EC50 (CDK2 (Homo sapiens, UniProt P24941); ANS displacement; ATP site blocked, added: staurosporine 5 µM): 56 ± 8 µM

O=C(NC1Cc2ccccc2C1)C(NCC1CC1)c1ccccc1 (centres unmarked)
EC50 (GRM7 (Homo sapiens, UniProt Q14831); cellular impedance, agonist, CellKey impedance; CHO expressing mGluR7; single addition): 0.09 µM

Cc1ccc(F)cc1S(=O)(=O)n1nc(SCc2ccccc2)nc1N
EC50 (LYPLAL1 (Homo sapiens, UniProt Q5VWZ2); enzyme activity, activator, gel-based ABPP, FP-rhodamine; purified protein): > 20 µM

NCC(c1ccc(O)cc1)c1ccc(Oc2ccc(O)cc2)c(I)c1 (centres unmarked)
EC50 (Trace amine-associated receptor 1 (Rattus norvegicus, UniProt Q923Y9); cAMP production, agonist; HEK293): 0.004 ± 0.001 µM

CCOC(=O)c1ccc(-c2c(-c3ccncc3)nnn2CC(=O)Nc2ccc(-c3ccccc3)cn2)cc1
EC50 (Protein-serine O-palmitoleoyltransferase porcupine (Mus musculus, UniProt Q9JJJ7); Wnt signalling reporter, inhibitor; L-Wnt-STF): 0.007 µM

CCc1ccc(NS(=O)(=O)c2cn(Cc3ccccn3)c3ncccc23)cc1
EC50 (CFTR (Homo sapiens, UniProt P13569, N1303K); iodide influx, co-potentiator, YFP fluorescence; FRT expressing CFTR; added: ivacaftor): 1.7 µM

CC1(C#Cc2cc(-c3nn(-c4nc(C(=O)O)cs4)c(CC4CC4)c3Cc3ccc(S(N)(=O)=O)c(F)c3)ccc2F)COC1
EC50 (LDHA; thermal stabilisation, CETSA; HEK293; 3.5 min, 71 °C): 0.14 µM

NCCCCNC(=O)[C@H](Cc1ccccc1)NC(=O)N1CCc2ccccc2C1
EC50 (Melanocortin receptor 5 (Mus musculus, UniProt P41149); reporter gene, agonist, β-galactosidase reporter; HEK293 stably expressing Melanocortin receptor 5): 22 ± 4.1 µM

O=C(NCCc1ccccc1)C12CC1/C(=N\O)c1ccccc1O2 (centres unmarked)
EC50 (GRM4; calcium mobilization, positive allosteric modulator; CHO hmGluR4/Gqi5; added: glutamate EC20): > 5 µM

COc1ccc(NC(=O)CN2CCCN(S(=O)(=O)c3cnc(NC(C)=O)s3)CC2)c(OC)c1
EC50 (GRM4; calcium mobilization, positive allosteric modulator; CHO cells with Gqi5; added: glutamate EC20): > 10 µM

Cc1nc(-c2ccc(OCC(C)C)c(C#N)c2)sc1C(=O)N1CCC(F)(F)CC1
EC50 (Grm2 (Rattus norvegicus, UniProt P31421); thallium flux, positive allosteric modulator; HEK293 GIRK; added: glutamate EC20): 2.4 µM

O=C(Nc1ccc([N+](=O)[O-])cc1)N[C@@H](Cc1c[nH]c2ccccc12)C(=O)NCC1(c2ccccn2)CCCCC1
EC50 (FPR1 (Homo sapiens, UniProt P21462); Ca2+ mobilization, agonist; HL-60 transfected with FPR1): 12.9 ± 3.4 µM

Cc1ccc(S(=O)(=O)OCCc2cn(CCc3c(C)[nH]c4cc(Cl)cc(Cl)c34)nn2)cc1
EC50 (GLP1R; cAMP accumulation, positive allosteric modulator, HTRF; CHO-K1 expressing GLP1R; crude reaction product, added: GLP-1(9-36) at EC20): 1.06 µM

NCC(c1ccccc1)c1cccc(Oc2ccccc2)c1 (centres unmarked)
EC50 (Trace amine-associated receptor 1 (Rattus norvegicus, UniProt Q923Y9, M268T); cAMP, agonist; rat receptor mutant): 0.055 ± 0.02 µM

CCn1nc(C)cc1C(=O)Nc1nc2cc(C(N)=O)cc(OC)c2n1CCCCn1c(NC(=O)c2cc(C)nn2CC)nc2cc(C(N)=O)cc(OCCCN3CCN(C(=O)CCCCCN4C(=O)C=CC4=O)CC3)c21
EC50 (Sting1 (Mus musculus, UniProt Q3TBT3); IFN-β secretion, agonist, ELISA; mouse BMDCs; carrier-free cysteine-blocked click): 1.62 µM

COc1ccc(NC(=O)CN2CCCN(S(=O)(=O)c3ccc(F)cc3)CC2)c(OC)c1
EC50 (GRM4; calcium mobilization, positive allosteric modulator; CHO cells with Gqi5; added: glutamate EC20): > 10 µM

NCCCCNC(=O)[C@H](Cc1ccc(I)cc1)NC(=O)N1CCc2ccccc2C1
EC50 (Mc1r (Mus musculus, UniProt Q01727); reporter gene, agonist, β-galactosidase reporter; HEK293 stably expressing Mc1r): 25 ± 2.8 µM

COc1cc(Nc2ncc3c(n2)-c2ccc(Cl)cc2C(c2c(F)cccc2OC)=NC3)ccc1C(=O)NCCOCCOCCOCCOCC(=O)N[C@H](C(=O)N1C[C@H](O)C[C@H]1C(=O)NCc1ccc(-c2scnc2C)cc1)C(C)(C)C
EC50 (Aurora kinase A (AURKA, Homo sapiens, UniProt O14965); target engagement, NanoBRET; HEK293; 2 h): 0.471 ± 0.16 µM

CCCCN(C(=O)C1CCN(S(=O)(=O)c2ccc3[nH]ncc3c2)CC1)[C@@H]1CCc2ccccc21
EC50 (CHRM5 (Homo sapiens, UniProt P08912); positive allosteric modulator, calcium mobilization; CHO cells expressing human M5; added: acetylcholine EC20): 0.349 µM

COc1ccc(NC(=O)CN2CCCN(S(=O)(=O)c3cccs3)CC2)c(OC)c1
EC50 (GRM4; calcium mobilization, positive allosteric modulator; CHO cells with Gqi5; added: glutamate EC20): 1.8 ± 0.3 µM

O=C(N[C@H]1CCCC[C@@H]1O)[C@@H]1CN(Cc2ccc(-n3cccn3)cc2)c2ccccc2O1
EC50 (CHRM1 (Homo sapiens, UniProt P11229); calcium mobilization, positive allosteric modulator; high-expression cell line; added: acetylcholine EC20): 0.63 µM

CCS(=O)(=O)c1nc(-c2ccc(F)cc2)cc(C(F)F)n1
EC50 (GLP1R; cAMP accumulation, positive allosteric modulator; HEK293T overexpressing target; added: GLP-1 at EC20): 38 ± 8.8 µM

COc1ccc(NC(=O)CN2CCCN(S(=O)(=O)c3ccc(Cl)c(Cl)c3)CC2)c(OC)c1
EC50 (GRM4; calcium mobilization, positive allosteric modulator; CHO cells with Gqi5; added: glutamate EC20): > 10 µM

O=S(=O)(c1cccc(C(F)(F)F)c1)N1CCC(Cn2cnc3ccccc32)CC1
EC50 (KCNT1; thallium flux, activator; HEK293 expressing KCNT1): 4.3 µM

CCCn1c(NCc2ccccc2O)nc2ccccc21
EC50 (ALDH1A1; enzyme activity, inhibitor, NADH absorbance 340 nm; pH 7.5, 25 °C, 200 µM NAD+, added: 100 µM propionaldehyde): 3.7 ± 0.38 µM

NCC(c1ccc(O)cc1)c1ccc(Oc2ccccc2)cc1 (centres unmarked)
EC50 (Trace amine-associated receptor 1 (Rattus norvegicus, UniProt Q923Y9, N287Y); cAMP, agonist; rat receptor mutant): ~1 µM

N#CC[C@@]12C[C@@H]1[C@@H](n1cnc3c(NCc4cccc(Cl)c4)nc(I)nc31)[C@H](O)[C@@H]2O
EC50 (SLC6A3 (Homo sapiens, UniProt Q01959)): 1.7 µM

CC(=O)c1cccc(S(=O)(=O)n2nc(CCCc3ccc(Cl)cc3)nc2N)c1
EC50 (Lysophospholipase-like protein 1; enzyme activity, activator, gel-based ABPP, FP-rhodamine; purified protein): > 20 µM

NS(=O)(=O)c1ccc(Cc2c(-c3ccc(F)c(/C=C/C4CCCC4)c3)nn(-c3nc(C(=O)O)cs3)c2CC2CC2)cc1F
EC50 (LDHA; thermal stabilisation, CETSA; HEK293; 3.5 min, 71 °C): 0.02 µM

CCCn1c(NCc2cccc(F)c2O)nc2ccccc21
EC50 (ALDH1A1; enzyme activity, inhibitor, NADH absorbance 340 nm; pH 7.5, 25 °C, 200 µM NAD+, added: 100 µM propionaldehyde): 3 ± 0.05 µM

Cc1[nH]c2cc(Cl)cc(Cl)c2c1CCn1cc(CCN)nn1
EC50 (GLP1R; cAMP accumulation, positive allosteric modulator, HTRF; CHO-K1 expressing GLP1R; purified compound, added: GLP-1(9-36) at EC20): 1.13 ± 0.295 µM

Nc1nc(SCc2ccc(Cl)cc2)nn1S(=O)(=O)c1cccc([N+](=O)[O-])c1
EC50 (Lysophospholipase-like protein 1; enzyme activity, activator, gel-based ABPP, FP-rhodamine; purified protein): 0.17 µM

CC(C)(Cn1cc(CNC(=O)Cc2ccccc2)nn1)c1c[nH]c2ccccc12
EC50 (GLP1R; cAMP accumulation, positive allosteric modulator, HTRF; CHO-K1 expressing GLP1R; crude reaction product, added: GLP-1(9-36) at EC20): 0.959 µM

O=C(Nc1ccccc1)C12CC1/C(=N\O)c1cc(F)ccc1O2 (centres unmarked)
EC50 (GRM4; calcium mobilization, positive allosteric modulator; CHO hmGluR4/Gqi5; added: glutamate EC20): > 5 µM

Cc1[nH]c2cc(Cl)cc(Cl)c2c1CCn1cc(CNC(N)=O)nn1
EC50 (GLP1R; cAMP accumulation, positive allosteric modulator, HTRF; CHO-K1 expressing GLP1R; purified compound, added: GLP-1(9-36) at EC20): 0.822 ± 0.356 µM

NCC(c1ccccc1)c1ccc(Oc2ccccc2)cc1 (centres unmarked)
EC50 (Taar1 (Mus musculus, UniProt Q923Y8); cAMP production, agonist; HEK293): > 10 µM

CC(C)(Cn1cc(-c2ccc(S(C)(=O)=O)cc2)nn1)c1c[nH]c2ccccc12
EC50 (GLP1R; cAMP accumulation, positive allosteric modulator, HTRF; CHO-K1 expressing GLP1R; crude reaction product, added: GLP-1(9-36) at EC20): 1.46 µM

Nc1nc(SCc2ccc(Cl)cc2)nn1S(=O)(=O)c1cccc2c1CCCC2
EC50 (Lysophospholipase-like protein 1; enzyme activity, activator, gel-based ABPP, FP-rhodamine; purified protein): 1.3 µM

CSc1cc(NC(=O)c2ccccn2)ccc1Cl
EC50 (GRM8 (Homo sapiens, UniProt O00222); agonist): 14 µM

CC(=O)NCc1cn(CCc2c(C)[nH]c3cc(Cl)cc(Cl)c23)nn1
EC50 (GLP1R; cAMP accumulation, positive allosteric modulator, HTRF; CHO-K1 expressing GLP1R; purified compound, added: GLP-1(9-36) at EC20): 0.789 ± 0.102 µM

Excerpt of the above:
NCCCCNC(=O)[C@H](Cc1ccc(I)cc1)NC(=O)N1CCc2ccccc2C1
EC50 (Mc1r (Mus musculus, UniProt Q01727); reporter gene, agonist, β-galactosidase reporter; HEK293 stably expressing Mc1r): 25 ± 2.8 µM

COc1ccc(NC(=O)CN2CCCN(S(=O)(=O)c3cnc(NC(C)=O)s3)CC2)c(OC)c1
EC50 (GRM4; calcium mobilization, positive allosteric modulator; CHO cells with Gqi5; added: glutamate EC20): > 10 µM

O=S(=O)(c1cccc(C(F)(F)F)c1)N1CCC(Cn2cnc3ccccc32)CC1
EC50 (KCNT1; thallium flux, activator; HEK293 expressing KCNT1): 4.3 µM

O=C(Nc1ccc([N+](=O)[O-])cc1)N[C@@H](Cc1c[nH]c2ccccc12)C(=O)NCC1(c2ccccn2)CCCCC1
EC50 (FPR1 (Homo sapiens, UniProt P21462); Ca2+ mobilization, agonist; HL-60 transfected with FPR1): 12.9 ± 3.4 µM
